Results from different studies.
Numbers after ± are the reported error.
EGFR G719C: Epidermal growth factor receptor (EGFR, Homo sapiens, UniProt P00533, G719C)
EGFR: Epidermal growth factor receptor (EGFR, Homo sapiens, UniProt P00533)
EGFR L858R/T790M: Epidermal growth factor receptor (EGFR, Homo sapiens, UniProt P00533, L858R/T790M)

`COc1cc(N2CCN(C)CC2)ccc1Nc1nc(N)n(C(=O)NCc2c(Cl)cccc2Cl)n1` gave a remaining activity of 13% (EGFR G719C; enzyme activity; 10 µM; baseline: control).
The remaining activity of `CCN(CC)c1ccc(C2=NNC(=O)CC2C)cc1[N+](=O)[O-]` (stereo not shown) is reported as 102% (EGFR; enzyme activity, inhibitor; 10 µM; baseline: vehicle).
`CC#CC(=O)N1CCC[C@H]1c1nc(-c2ccc(C(=O)Nc3ccccn3)cc2)c2c(N)nccn12` has a remaining activity of 95.9 ± 1.2% (EGFR; kinase activity, inhibitor, HotSpot radiometric; 100 nM, together with: ATP 10 µM).
With `COc1cc(N2CCN(C)CC2)ccc1Nc1nc(N)n(C(=S)NCc2c(Cl)cccc2Cl)n1` the remaining activity was 1.4% (EGFR (Homo sapiens, UniProt P00533, A750P/del747-749); enzyme activity; 10 µM; baseline: control).
`O=C(NC1CCC1)c1ccc2nc(-c3cccc(NS(=O)(=O)NCCN4CCCCC4)c3)cn2c1` has a remaining activity of 92% (EGFR L858R/T790M; enzyme activity; 10 µM).
For `COc1ccc(F)cc1C(=O)NCc1ccc(-c2nn([C@@H](C)C(F)(F)F)c(N)c2C(N)=O)cc1`, the remaining activity was 60.6 ± 0.6% (EGFR; kinase activity, inhibitor, HotSpot radiometric; 1000 nM, together with: ATP at Km).
`COc1cc(N2CCN(C)CC2)ccc1Nc1nc(N)n(C(=O)NCc2ccccc2S(=O)(=O)C(C)C)n1` has a remaining activity of 9.4% (EGFR (Homo sapiens, UniProt P00533, del752-759); enzyme activity; 10 µM; baseline: control).
For `Cc1[nH]c(/C=C2\C(=O)Nc3ccc(F)cc32)c(C)c1C(=O)N[C@H]1CCN(C(=O)N(C)C)C1`, the remaining activity was 105% (EGFR; kinase activity; 1 µM; baseline: control).
For `CCCOc1ccc(OC)c(F)c1C(=O)c1ccc(C(=O)N[C@@H]2CNC[C@H]2NC(=O)c2ccc3[nH]ncc3c2)cc1`, the remaining activity was 67% (EGFR L858R/T790M; enzyme activity; 10 µM).
`CC(C)Oc1cc(N2CCN(C)CC2)ccc1Nc1nc(N)n(C(=O)NCc2ccccc2S(=O)(=O)C(C)C)n1` has a remaining activity of 3.6% (EGFR G719C; enzyme activity; 10 µM; baseline: control).
The remaining activity of `COc1cc(-c2cncc3c2CN(C)Cc2cc(N4CCNCC4)ccc2-3)cc(OC)c1OC` is reported as 103% (EGFR (Homo sapiens, UniProt P00533, T790M); kinase activity; 1 µM, together with: ATP 10 µM; baseline: DMSO control).
With `COc1cc(F)ccc1-c1ncnc(Nc2cccc(C[S@](C)(=N)=O)c2)n1` the remaining activity was 96% (EGFR; kinase activity; 10 µM, together with: 10 µM ATP).
`Cc1cc(Nc2cc(N3CCN(C)CC3)nc(Sc3ccc(NC(=O)C4CC4)cc3)n2)[nH]n1` gave a remaining activity of 109% (EGFR; kinase activity, KinaseProfiler; 0.03 µM, species human; baseline: control).
